Results from different studies.
Numbered parts are unrelated; each lists some results of a single study.

Study 1 — method: protein binding microarray; molecule type: double-stranded DNA, one strand shown; medium: in vitro; tested at: not given; reference: not given; reading: higher = stronger binding
Target: Histone acetyltransferase KAT6A, winged helix 2, GST fusion (KAT6A, Homo sapiens, UniProt Q92794, residues 85-181)
Notes: 8-mer, flanks averaged, mean of 2 arrays, mostly near background
Residues (chain): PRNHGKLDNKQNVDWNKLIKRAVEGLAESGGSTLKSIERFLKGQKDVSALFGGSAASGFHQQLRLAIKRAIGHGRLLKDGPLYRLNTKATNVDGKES
Oligonucleotide | E-score
ACTCGTGG | -0.126
ATCCTCCC | -0.0533
CGTGAGCA | 0.0728
AGCCGTCC | 0.0534
CACACCAA | -0.025
CGTTGCGA | 0.00351
AAATTAAT | 0.172
AGCTTCCC | -0.0271
AGCAGAGG | 0.0809
AAACAAGT | -0.069
ACTTGAGG | -0.118
GACACTCA | -0.021
AAGTAGGT | -0.158
AAGCTAGA | 0.0136
CCGAGCGG | 0.168
CTGCCTCA | -0.054
ATTTTAGC | 0.092
AAGACGCC | 0.0175
ACACTCGA | 0.101
CTTGAGTC | -0.0936
CTCGAAAC | 0.14
GATCACGA | -0.00673

Study 2 — method: protein-binding microarray; molecule type: double-stranded DNA, one strand shown; medium: in vitro; tested at: not given; reading: higher = stronger binding
Target: Max-binding protein MNT, bHLH-zipper, MAX partner unstated (MNT, Homo sapiens, UniProt Q99583, residues 220-300)
Notes: k-mer, scored over probes, only values ≥0.25
Target sequence (chain): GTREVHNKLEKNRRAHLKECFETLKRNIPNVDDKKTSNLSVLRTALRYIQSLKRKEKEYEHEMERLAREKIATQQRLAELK
Oligonucleotide | E-score
AGCGCGTG | 0.438
ATGTGCTA | 0.274
AACACGCG | 0.454
CGTGCTTA | 0.376
CCCCACTA | 0.27
ACCCACAC | 0.267
CACACGCA | 0.33
CCATGGAC | 0.254
CCACGGGG | 0.354
ACGCGAGT | 0.285
CATGTGGG | 0.465
CCCGTGCG | 0.344
ACGCGTCC | 0.308
CGCACTCC | 0.26
CGTGGAAA | 0.351
CGCATGGA | 0.401
CACGCTCG | 0.406
CACCACAC | 0.287
CATGGGTA | 0.269
CCACCCAC | 0.32
CGCCCACC | 0.281
CGCACGCG | 0.444
CCACCCGC | 0.289
GCCACGCA | 0.35
ACGTGCTG | 0.46

Study 3 — method: RNAcompete; molecule type: RNA; medium: in vitro; tested at: 20 nM; notes: 7-mer, probes averaged, single round; reference: mean of 7-mers; reading: higher = stronger binding
Target: PABPC1L2, full length, GST fusion (mouse, UniProt A0ABA7IW68)
Residues (chain): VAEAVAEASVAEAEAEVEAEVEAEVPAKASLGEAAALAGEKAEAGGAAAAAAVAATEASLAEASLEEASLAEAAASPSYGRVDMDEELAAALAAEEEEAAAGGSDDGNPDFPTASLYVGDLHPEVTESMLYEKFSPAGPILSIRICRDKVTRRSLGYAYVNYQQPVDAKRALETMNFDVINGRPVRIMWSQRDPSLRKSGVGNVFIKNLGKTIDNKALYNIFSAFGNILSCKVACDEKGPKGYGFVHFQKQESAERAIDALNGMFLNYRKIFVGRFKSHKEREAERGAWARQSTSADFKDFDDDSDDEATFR
Oligonucleotide | 7-mer Z-score
CCUCCUA | -0.318
GAGAUCU | -0.162
CGAAGUU | -0.122
UUCAUUC | -0.394
CCCCUUC | -0.476
AGGAAGU | -0.208
UUACUGG | 0.0334
CUCCGCU | -0.342
CAUAUGC | -0.238
CGAAUUG | -0.0754
ACGGAGU | -0.0464
AAUGUUG | -0.0554
GCCGUGC | -0.306
GCAAGUG | -0.0935
CACGGGA | 0.0587
GGAGAGG | 0.309
UUGUUUC | -0.508
AGCUACA | -0.0844
UCAACUG | -0.237
CUUGCUC | -0.465
CCCCAAG | -0.28
UUGAUAU | -0.0772
CGUGUGU | -0.364
GAAUACC | -0.17
ACGCCAU | -0.0826

Study 4 — method: protein-binding microarray; molecule type: double-stranded DNA, one strand shown; medium: in vitro; tested at: 250 nM; notes: 60-bp whole probe; together with: salmon DNA 0.4 mg/ml; reference: random background probes; reading: higher = stronger binding; shared flanks, not repeated: GCCTAGCAC … GTCTTGATTCGCTTGACGCTGCTG
Target: Interferon regulatory factor 7, full length, phosphomimetic (IRF7, Homo sapiens, UniProt Q92985, residues 1-503, S101K/S471D/S472D/S475D/S476D/S477D/S483D/S484D/S487D)
Target sequence (chain): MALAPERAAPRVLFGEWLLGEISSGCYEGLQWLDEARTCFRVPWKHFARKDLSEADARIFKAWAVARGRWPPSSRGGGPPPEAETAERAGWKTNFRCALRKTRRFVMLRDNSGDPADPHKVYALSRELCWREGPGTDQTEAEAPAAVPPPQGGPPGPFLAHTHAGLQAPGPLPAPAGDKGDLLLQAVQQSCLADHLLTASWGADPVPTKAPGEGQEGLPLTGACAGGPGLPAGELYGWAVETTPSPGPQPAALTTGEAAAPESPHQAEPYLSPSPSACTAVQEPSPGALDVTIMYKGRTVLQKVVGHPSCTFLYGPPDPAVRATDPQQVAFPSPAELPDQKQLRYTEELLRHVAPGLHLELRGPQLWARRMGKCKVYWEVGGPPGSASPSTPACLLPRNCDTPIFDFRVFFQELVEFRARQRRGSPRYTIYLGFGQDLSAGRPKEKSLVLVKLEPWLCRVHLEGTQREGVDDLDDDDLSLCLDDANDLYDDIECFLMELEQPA
Oligonucleotide | log fluorescence [z-score]
TAGCATGTAATTTGTTTGCAGTGCTAG | -0.297
GACGGTTTCAGGTATCGGGACGTGCTA | 2.04
TTAGGGTTCCTTATCCTTTAGTGCTAG | 0.397
ATAGGTATCGACACTGGGTTAGTGCTA | -0.16
TCATTTTGGTCTTTCTGACTGTGCTAG | 0.947
GGCAGGCTTGCCAGTTCCCCGTGCTAG | -1.19
TTAGAACTAAGTTTCGATTAGTGCTAG | 8.94
GACGGTTTCGGGACAGGGGACGTGCTA | 4.76
GACGATATCAGCATCGAGACGTGCTAG | -0.355
GACGAACTGGGGACTGGAGATGTGCTA | -0.63
GACGATATCAGTTTAGAGACGTGCTAG | -0.105
TTTGGTTTCGGTCTCGGTTAGTGCTAG | 9.64
GACGGACTGGACACTGGGGCCGTGCTA | -1.04
TTAGGACTGGACTATCGGTTTGTGCTA | 0.0321
GACGGACTGGTGTATCGGGACGTGCTA | -0.773
TTAGGTATCGGTCTAGGTTAGTGCTAG | 0.78
TTAGATTTAGGGTTTCGATTAGTGCTA | 6.07
TTAGGACTGGGGTTTCGGTTGGTGCTA | 5.6
TTAAGACTGCTTATCCTTTAGTGCTAG | 0.0729
TTCGATTTCAGACTGGATTAGTGCTAG | 0.619
TCATCTCTGCTTGTATCACTGTGCTAG | 0.444
TCATACATGAGTTTAGAACTGTGCTAG | 0.0832
TTAGGTATCCTACAGCTTTAGTGCTAG | -0.0631
GACGGTCTCCTACAGCTGACGTGCTAG | -0.105
GGGAACTTAAACCTCTAAAGGTGCTAG | 0.197

Study 5 — method: universal PBM; molecule type: double-stranded DNA, one strand shown; medium: in vitro; tested at: not given; reading: higher = stronger binding
Target: Sal-like protein 4, full length isoform B (SALL4, Homo sapiens, UniProt Q9UJQ4-2, residues 1-616)
Notes: 8-mer, flanks averaged, mean of replicates
Oligonucleotide | E-score
AAGTGCTA | 0.204
TCTAGGCA | -0.0494
ACCTTCCA | -0.0181
TATTGAGA | 0.287
ACAAGGCG | -0.132
ACTGACCA | -0.169
TACTGATA | 0.242
ATTGGTAG | 0.224
ATGTTCTA | 0.123
ATTCTAGC | 0.0486
CGCACGGA | -0.133
CAGAGTAC | -0.0786
AGCGTGGC | -0.183
AGGATGAC | -0.0147
AGGCAATG | -0.071
CTCCCCAC | -0.192
ATTCCTCG | -0.0812
GTTGATGA | 0.159
CTTCGGGA | -0.0105
TGAGCCAA | 0.0849
AGTTTTAT | 0.303
GTTCATAA | 0.35
CGTTTCGA | -0.122
AACGCAAT | 0.203
CTGCTTGA | -0.106

Some of these lines once more (study 1):
Oligonucleotide | E-score
GACACTCA | -0.021
AAGTAGGT | -0.158
AAGCTAGA | 0.0136
CCGAGCGG | 0.168
CTGCCTCA | -0.054
ATTTTAGC | 0.092
AAGACGCC | 0.0175
